Measurements from different studies.
Lines come from different studies, so protocols differ. Several values in a cell are separate wells, animals, samples, runs or records. ± gives the spread as reported.
Chain of UniProt P06276 (whole entry, looked up): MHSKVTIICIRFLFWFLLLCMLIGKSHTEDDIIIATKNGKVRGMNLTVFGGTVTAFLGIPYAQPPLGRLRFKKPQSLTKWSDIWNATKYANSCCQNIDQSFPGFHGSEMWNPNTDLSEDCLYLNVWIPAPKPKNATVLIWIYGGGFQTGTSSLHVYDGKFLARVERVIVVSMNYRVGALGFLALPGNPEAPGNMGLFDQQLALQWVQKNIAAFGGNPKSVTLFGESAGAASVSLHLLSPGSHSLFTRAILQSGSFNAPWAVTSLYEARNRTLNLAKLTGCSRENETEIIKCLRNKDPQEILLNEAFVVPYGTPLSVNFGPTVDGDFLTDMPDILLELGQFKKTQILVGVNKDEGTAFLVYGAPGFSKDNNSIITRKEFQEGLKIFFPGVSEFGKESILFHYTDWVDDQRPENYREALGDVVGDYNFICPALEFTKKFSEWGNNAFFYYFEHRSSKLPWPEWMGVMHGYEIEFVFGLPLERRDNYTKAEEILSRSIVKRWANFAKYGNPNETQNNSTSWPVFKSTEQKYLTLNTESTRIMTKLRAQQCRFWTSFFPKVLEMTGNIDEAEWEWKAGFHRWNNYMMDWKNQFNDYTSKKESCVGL

SMILES	target or system	test	test system	conditions	how to read	quantity	value
CC(C)C[C@H](NC(=O)[C@H](C)NC(=O)[C@@H](NC(=O)[C@H](CCCNC(=N)N)NC(=O)[C@H](CC(C)C)NC(=O)[C@H](Cc1c[nH]c2ccccc12)NC(=O)[C@@H]1CCCN1C(=O)[C@@H](N)CCCCN)C(C)C)C(=O)N[C@@H](CS)C(=O)N1CCC[C@H]1C(=O)NCC(=O)O	H9c2	WST-1		64 µM, 24 h		viability	92.1% and 103% and 87.2%
CC(c1ccccc1)(c1ccc(O)cc1)c1ccc(O)cc1	HepG2 spheroids, dissociated	annexin V-FITC/PI flow cytometry		10 µM, 96 h		early apoptotic cells	7.47 ± 0.94%
N=C(N)NCCC[C@H](NC(=O)[C@H](Cc1c[nH]c2ccccc12)NC(=O)[C@H](CCCNC(=N)N)NC(=O)[C@H](Cc1c[nH]c2ccccc12)NC(=O)[C@H](Cc1c[nH]c2ccccc12)NC(=O)[C@H](Cc1c[nH]c2ccccc12)NC(=O)[C@H](CCCNC(=N)N)NC(=O)[C@H](Cc1c[nH]c2ccccc12)NC(=O)[C@H](CCCNC(=N)N)NC(=O)CN)C(N)=O	PK-15					LC50	> 512 µM
C=C1CC[C@@H]2[C@](C)(CO)[C@H](O)CC[C@@]2(C)[C@@H]1C/C=C1/C(=O)OC[C@H]1O	AREc32	cytotoxicity		24 h	relative to: baseline IC10 over IC10	toxic ratio	8.4
CC[C@H](C)[C@H](NC(=O)[C@H](CC(=O)O)NC(=O)CNC(=O)[C@H](CCCCN)NC(=O)[C@H](C)NC(=O)[C@H](CS)NC(=O)[C@H](CC(C)C)NC(=O)[C@H](CCCNC(=N)N)NC(=O)[C@H](CO)NC(=O)[C@H](Cc1ccccc1)NC(=O)[C@H](Cc1ccc(O)cc1)NC(=O)[C@H](C)NC(=O)[C@H](CC(C)C)NC(=O)[C@H](CC(C)C)NC(=O)[C@H](CC(C)C)NC(=O)[C@H](CC(C)C)NC(=O)[C@@H]1CCCN1C(=O)[C@@H](N)CCCNC(=N)N)C(=O)N1CCC[C@H]1C(=O)N1CCC[C@H]1C(=O)N1CCC[C@H]1C(=O)N[C@@H](CC(C)C)C(=O)N[C@@H](CCCNC(=N)N)C(=O)N[C@@H](C)C(=O)N[C@@H](CC(C)C)C(=O)N1CCC[C@H]1C(=O)N[C@@H](CCCNC(=N)N)C(=O)N[C@@H](Cc1ccc(O)cc1)C(=O)N[C@@H](CCCNC(=N)N)C(=O)N[C@@H](CC(C)C)C(=O)N[C@@H](CC(C)C)C(=O)N[C@@H](CCCNC(=N)N)C(=O)N[C@@H](CC(=O)O)C(=O)N[C@@H](CC(C)C)C(=O)N1CCC[C@H]1C(=O)N[C@@H](CCCNC(=N)N)C(=O)N[C@@H](CC(C)C)C(=O)N[C@@H](CC(C)C)C(=O)N[C@@H](CCCNC(=N)N)C(=O)O	PMA-differentiated THP-1	cell viability, MTT		24 h		CC50	60.6 µM
CC(C)(C)[C@]1(O)CCN2C[C@H]3c4ccccc4CCc4cccc(c43)[C@@H]2C1	Plasmodium falciparum		7G8			IC50	5.01 µM
CC(C)(c1ccc(O)cc1)c1ccc(O)cc1	HepG2 spheroids, dissociated	annexin V-FITC/PI flow cytometry		1 µM, 96 h		early apoptotic cells	4.51 ± 1.59%
CC(C)(O)Cc1nc(N)[nH]c(=O)c1Br	HeLa	cell morphology alteration				minimum cytotoxic concentration	> 100 µM
COc1ccc2c(c1)CN(C(=O)CCN1CCC(Cc3ccccc3)CC1)CCS2	Cholinesterase (BCHE, Homo sapiens, UniProt P06276)	inhibitor		with Triton		IC50	7.18 ± 2.12 µM
Oc1ccc(C2(c3ccc(O)cc3)c3ccccc3-c3ccccc32)cc1	HepG2 spheroids, dissociated	annexin V-FITC/PI flow cytometry		1 µM, 96 h		viable cells	38.8 ± 7.06%
C#CCNS(=O)(=O)c1ccc(CCN(Cc2cc(Cl)ccc2OCCC)C(=O)Cc2ccsc2)cc1	THP-1 ASC-GFP monocytes	MTT		24 h		maximum tolerated dose	3.11 µg/mL
O=c1ccc2ccccc2o1	HepG2	cell membrane permeability		concentration not given, 1 h, necrosis and apoptosis panel		chance response	0.05%
CO[C@H]1C[C@H](O[C@H]2CC[C@]3(C)[C@H]4CC[C@]5(C)[C@@H](C6=CC(=O)OC6)CC[C@]5(O)[C@@H]4CC[C@]3(O)C2)O[C@H](C)[C@H]1O[C@@H]1O[C@H](CO)[C@@H](O)[C@H](O)[C@H]1O	PH5CH8 hepatocytes	high-content cell count		72 h		CC50	0.039 µM
CC(COc1ccccc1)N(CCCl)Cc1ccccc1 (centres unmarked)	Plasmodium falciparum		GB4			IC50	1.58 µM
